{"data": "Measured values collected from several papers", "note": "A part holds a random share of what one study measured. “And” joins repeats or separate records; there may be more than shown. pKd: −log10 of the molar value.", "chain of UniProt O94768 (whole entry, looked up)": "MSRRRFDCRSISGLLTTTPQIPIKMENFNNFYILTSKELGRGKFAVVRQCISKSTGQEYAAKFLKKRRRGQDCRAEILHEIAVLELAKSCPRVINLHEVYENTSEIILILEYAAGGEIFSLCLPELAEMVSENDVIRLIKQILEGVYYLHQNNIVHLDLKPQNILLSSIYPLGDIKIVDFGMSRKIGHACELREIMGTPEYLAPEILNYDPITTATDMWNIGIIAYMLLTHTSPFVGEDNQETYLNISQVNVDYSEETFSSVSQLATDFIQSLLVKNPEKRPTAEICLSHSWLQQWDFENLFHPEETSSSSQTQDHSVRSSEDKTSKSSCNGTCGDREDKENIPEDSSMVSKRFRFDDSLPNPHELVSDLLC", "chain of UniProt Q9UBF8 (whole entry, looked up)": "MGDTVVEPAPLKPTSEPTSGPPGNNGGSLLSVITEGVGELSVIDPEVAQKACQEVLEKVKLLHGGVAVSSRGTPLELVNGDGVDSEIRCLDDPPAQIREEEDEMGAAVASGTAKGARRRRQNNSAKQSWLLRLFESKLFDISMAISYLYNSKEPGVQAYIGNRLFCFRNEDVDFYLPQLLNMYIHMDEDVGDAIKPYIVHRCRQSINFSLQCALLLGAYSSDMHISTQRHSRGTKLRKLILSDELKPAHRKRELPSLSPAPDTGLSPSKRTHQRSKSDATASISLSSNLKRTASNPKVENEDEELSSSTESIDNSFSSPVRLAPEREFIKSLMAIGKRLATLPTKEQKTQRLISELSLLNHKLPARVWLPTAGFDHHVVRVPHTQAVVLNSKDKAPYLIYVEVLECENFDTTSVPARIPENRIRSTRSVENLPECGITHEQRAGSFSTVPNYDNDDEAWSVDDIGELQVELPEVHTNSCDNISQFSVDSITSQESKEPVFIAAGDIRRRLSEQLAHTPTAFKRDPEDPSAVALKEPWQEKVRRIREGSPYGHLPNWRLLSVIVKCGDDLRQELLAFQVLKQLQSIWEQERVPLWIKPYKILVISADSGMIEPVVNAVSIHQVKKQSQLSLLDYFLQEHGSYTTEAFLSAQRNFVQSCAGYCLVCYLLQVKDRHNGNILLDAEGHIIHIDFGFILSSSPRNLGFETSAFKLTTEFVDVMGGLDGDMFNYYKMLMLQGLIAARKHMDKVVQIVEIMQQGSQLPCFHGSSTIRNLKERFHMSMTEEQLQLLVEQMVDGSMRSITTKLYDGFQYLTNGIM", "chain of UniProt P53350 (whole entry, looked up)": "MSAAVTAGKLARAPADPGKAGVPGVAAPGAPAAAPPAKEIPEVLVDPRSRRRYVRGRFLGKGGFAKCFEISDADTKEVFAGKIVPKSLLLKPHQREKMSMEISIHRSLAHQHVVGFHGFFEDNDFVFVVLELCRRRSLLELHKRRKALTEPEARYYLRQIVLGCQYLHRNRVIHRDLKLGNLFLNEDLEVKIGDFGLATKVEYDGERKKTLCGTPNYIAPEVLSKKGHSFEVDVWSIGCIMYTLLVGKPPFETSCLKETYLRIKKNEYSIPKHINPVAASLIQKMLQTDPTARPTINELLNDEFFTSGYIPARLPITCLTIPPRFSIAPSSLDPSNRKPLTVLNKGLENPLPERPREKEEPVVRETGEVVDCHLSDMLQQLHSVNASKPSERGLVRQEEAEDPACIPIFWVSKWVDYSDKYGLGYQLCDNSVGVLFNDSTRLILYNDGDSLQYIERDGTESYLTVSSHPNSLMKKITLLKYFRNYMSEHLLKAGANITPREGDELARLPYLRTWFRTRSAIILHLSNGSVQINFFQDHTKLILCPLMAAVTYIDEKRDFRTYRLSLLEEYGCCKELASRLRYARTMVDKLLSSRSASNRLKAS", "chain of UniProt P21860 (whole entry, looked up)": "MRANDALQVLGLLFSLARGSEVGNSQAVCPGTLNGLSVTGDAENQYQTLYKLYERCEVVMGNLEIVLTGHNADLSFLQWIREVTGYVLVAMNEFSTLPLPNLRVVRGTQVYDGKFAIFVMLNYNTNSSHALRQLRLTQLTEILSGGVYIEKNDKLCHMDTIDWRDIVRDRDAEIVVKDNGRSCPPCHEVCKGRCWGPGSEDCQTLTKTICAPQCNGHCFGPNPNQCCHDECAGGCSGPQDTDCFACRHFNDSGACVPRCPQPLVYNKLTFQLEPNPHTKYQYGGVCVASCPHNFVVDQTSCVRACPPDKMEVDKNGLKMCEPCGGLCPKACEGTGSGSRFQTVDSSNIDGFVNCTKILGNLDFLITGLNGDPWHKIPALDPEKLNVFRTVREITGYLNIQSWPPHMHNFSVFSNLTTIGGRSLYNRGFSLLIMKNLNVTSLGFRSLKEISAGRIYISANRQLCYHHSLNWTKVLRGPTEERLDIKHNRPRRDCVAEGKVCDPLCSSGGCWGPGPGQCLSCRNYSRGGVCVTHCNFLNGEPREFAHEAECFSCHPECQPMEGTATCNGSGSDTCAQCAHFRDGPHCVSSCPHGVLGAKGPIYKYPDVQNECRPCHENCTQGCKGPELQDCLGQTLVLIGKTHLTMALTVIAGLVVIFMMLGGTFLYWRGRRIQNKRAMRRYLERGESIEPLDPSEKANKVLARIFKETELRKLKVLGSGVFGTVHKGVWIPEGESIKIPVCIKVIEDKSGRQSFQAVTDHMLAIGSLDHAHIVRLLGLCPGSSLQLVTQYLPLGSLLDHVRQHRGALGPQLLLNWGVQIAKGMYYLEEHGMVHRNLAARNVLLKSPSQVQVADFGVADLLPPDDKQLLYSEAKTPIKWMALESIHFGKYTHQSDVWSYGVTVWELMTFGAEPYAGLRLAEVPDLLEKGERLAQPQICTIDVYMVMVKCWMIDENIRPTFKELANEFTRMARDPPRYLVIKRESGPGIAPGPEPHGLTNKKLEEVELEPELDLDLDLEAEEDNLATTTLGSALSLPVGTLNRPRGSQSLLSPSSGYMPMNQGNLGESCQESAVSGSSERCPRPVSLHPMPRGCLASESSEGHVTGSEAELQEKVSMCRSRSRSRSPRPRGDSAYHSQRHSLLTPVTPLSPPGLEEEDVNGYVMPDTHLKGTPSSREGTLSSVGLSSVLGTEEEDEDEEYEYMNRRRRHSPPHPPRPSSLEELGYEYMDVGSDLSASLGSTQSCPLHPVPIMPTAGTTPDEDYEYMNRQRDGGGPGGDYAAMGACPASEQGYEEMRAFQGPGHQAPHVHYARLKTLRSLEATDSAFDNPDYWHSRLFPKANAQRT", "chain of UniProt O14965 (whole entry, looked up)": "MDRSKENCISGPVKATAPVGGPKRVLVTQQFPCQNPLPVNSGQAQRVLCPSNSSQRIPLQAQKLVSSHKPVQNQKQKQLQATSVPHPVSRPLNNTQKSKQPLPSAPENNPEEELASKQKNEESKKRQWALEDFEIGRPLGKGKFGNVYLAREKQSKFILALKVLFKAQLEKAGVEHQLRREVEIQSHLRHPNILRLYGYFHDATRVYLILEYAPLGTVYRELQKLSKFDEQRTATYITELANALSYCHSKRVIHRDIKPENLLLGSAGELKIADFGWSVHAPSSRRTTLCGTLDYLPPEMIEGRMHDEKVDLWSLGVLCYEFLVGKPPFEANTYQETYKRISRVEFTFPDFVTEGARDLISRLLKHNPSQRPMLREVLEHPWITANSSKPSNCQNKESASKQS"}
{"data": "Set 1", "Structure (SMILES)": "C[C@@H]1CN(c2ccc(-c3cc(C(=O)NCCOCCOCCOCCOCCNC(=O)/C=C/c4[nH]cc(C(=O)N[C@@H](CC(N)=O)c5ccc(F)c(Cl)c5)c4-c4ccc(Cl)cc4F)ccc3F)cc2NC(=O)c2c[nH]c(=O)cc2C(F)(F)F)C[C@H](C)N1C", "read-out": "thermal unfolding", "technique": "differential scanning fluorimetry", "concentration": "5.5 µM", "direction": "higher = more unfolded", "DCAF1": "DDB1- and CUL4-associated factor 1 (DCAF1, Homo sapiens, UniProt Q9Y4B6)", "WDR5": "WD repeat-containing protein 5 (WDR5, Homo sapiens, UniProt P61964)", "chain of UniProt Q9Y4B6 (whole entry, looked up)": "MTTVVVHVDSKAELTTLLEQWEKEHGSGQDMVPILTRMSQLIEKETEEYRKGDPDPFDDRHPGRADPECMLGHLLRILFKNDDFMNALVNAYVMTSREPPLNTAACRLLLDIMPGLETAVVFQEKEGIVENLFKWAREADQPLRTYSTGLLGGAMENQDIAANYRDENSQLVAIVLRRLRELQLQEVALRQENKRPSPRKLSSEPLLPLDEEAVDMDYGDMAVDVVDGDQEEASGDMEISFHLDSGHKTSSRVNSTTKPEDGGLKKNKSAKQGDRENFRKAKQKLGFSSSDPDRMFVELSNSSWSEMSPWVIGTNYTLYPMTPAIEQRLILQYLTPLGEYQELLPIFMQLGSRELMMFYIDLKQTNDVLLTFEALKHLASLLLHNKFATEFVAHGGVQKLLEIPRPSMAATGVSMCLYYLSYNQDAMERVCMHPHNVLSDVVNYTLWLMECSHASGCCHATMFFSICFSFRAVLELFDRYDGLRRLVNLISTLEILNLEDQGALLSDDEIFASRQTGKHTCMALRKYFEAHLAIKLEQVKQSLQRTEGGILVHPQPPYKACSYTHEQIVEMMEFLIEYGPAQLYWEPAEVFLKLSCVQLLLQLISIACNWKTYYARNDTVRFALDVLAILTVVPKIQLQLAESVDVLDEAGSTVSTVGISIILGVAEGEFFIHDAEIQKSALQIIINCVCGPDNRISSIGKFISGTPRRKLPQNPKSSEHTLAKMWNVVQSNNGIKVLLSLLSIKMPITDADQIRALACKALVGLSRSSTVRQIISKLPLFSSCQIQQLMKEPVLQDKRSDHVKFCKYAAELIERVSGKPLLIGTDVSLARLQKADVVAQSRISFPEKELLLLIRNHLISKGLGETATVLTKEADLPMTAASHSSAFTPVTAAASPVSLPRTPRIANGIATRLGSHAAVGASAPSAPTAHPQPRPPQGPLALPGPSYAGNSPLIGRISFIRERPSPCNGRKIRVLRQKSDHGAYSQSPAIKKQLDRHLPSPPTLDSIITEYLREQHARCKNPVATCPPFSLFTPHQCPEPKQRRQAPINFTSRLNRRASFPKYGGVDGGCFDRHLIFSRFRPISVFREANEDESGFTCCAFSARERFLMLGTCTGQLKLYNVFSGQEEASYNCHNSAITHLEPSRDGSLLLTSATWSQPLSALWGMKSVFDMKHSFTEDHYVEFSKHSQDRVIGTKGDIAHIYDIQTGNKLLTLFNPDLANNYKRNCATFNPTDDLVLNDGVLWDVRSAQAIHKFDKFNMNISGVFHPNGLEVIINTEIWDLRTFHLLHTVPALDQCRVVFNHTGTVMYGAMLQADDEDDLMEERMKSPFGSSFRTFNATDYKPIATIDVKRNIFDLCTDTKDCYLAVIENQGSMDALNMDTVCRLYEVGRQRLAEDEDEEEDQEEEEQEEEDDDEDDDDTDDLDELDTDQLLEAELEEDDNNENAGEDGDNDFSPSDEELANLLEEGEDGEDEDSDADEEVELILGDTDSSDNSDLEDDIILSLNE"}
{"target": "DCAF1", "conditions": "46.8 °C", "SYPRO Orange fluorescence [a.u.]": 13800}
{"target": "WDR5", "conditions": "47 °C", "SYPRO Orange fluorescence [a.u.]": 15700}
{"target": "DCAF1", "conditions": "29 °C", "SYPRO Orange fluorescence [a.u.]": 9300}
{"target": "DCAF1", "conditions": "78.01 °C", "SYPRO Orange fluorescence [a.u.]": 47100}
{"target": "DCAF1", "conditions": "46.4 °C", "SYPRO Orange fluorescence [a.u.]": 13600}
{"target": "WDR5", "conditions": "36 °C", "SYPRO Orange fluorescence [a.u.]": 13400}
{"target": "DCAF1", "conditions": "93.81 °C", "SYPRO Orange fluorescence [a.u.]": 30800}
{"target": "DCAF1", "conditions": "39.2 °C", "SYPRO Orange fluorescence [a.u.]": 11300}
{"target": "WDR5", "conditions": "84.81 °C", "SYPRO Orange fluorescence [a.u.]": 52000}
{"target": "DCAF1", "conditions": "35.6 °C", "SYPRO Orange fluorescence [a.u.]": 10400}
{"target": "WDR5", "conditions": "33.6 °C", "SYPRO Orange fluorescence [a.u.]": 13100}
{"data": "Set 2", "Compound": "Cc1ccc(O)c(C)c1-c1cnc2[nH]c(-c3cnc(N4CCC5(CC4)CC(N4CCN(c6ccc(N[C@H]7CCC(=O)NC7=O)cc6F)CC4)CO5)nc3)cc2c1C#N (single isomer, unassigned)", "medium": "plasma", "route": "oral"}
{"test system": "male beagle dog", "conditions": "5 mg/kg", "Cmax": "583 ng/mL"}
{"test system": "male cynomolgus monkey", "conditions": "10 mg/kg", "Cmax": "144 ng/mL"}
{"test system": "female CD-1 mouse", "conditions": "40 mg/kg", "Cmax": "1180 ng/mL"}
{"test system": "male Sprague-Dawley rat", "conditions": "20 mg/kg", "Cmax": "2270 ng/mL"}
{"data": "Set 3", "Structure (SMILES)": "CC[C@@]1(c2cccc(C(F)(F)F)c2)C2=C(Nc3n[nH]cc31)[C@H](F)C(C)(C)CC2=O (single isomer, unassigned)", "concentration": "1 µM"}
{"target": "Aurora kinase A (AURKA, Homo sapiens, UniProt O14965)", "assay": "kinase binding, KINOMEscan", "how to read": "baseline: DMSO control", "remaining binding [%]": 100}
{"target": "Serine/threonine-protein kinase PAK 2 (PAK2, Homo sapiens, UniProt Q13177)", "assay": "kinase binding, KINOMEscan", "how to read": "baseline: DMSO control", "remaining binding [%]": 100}
{"target": "Mitogen-activated protein kinase kinase kinase 4 (MAP3K4, Homo sapiens, UniProt Q9Y6R4)", "assay": "binding, competition with immobilised ligand", "remaining binding [%]": 100}
{"target": "Tyrosine-protein kinase Fgr (FGR, Homo sapiens, UniProt P09769)", "assay": "binding, competition with immobilised ligand", "remaining binding [%]": 100}
{"target": "Tyrosine-protein kinase CSK (CSK, Homo sapiens, UniProt P41240)", "assay": "binding, competition with immobilised ligand", "remaining binding [%]": 100}
{"target": "Phosphatidylinositol 4-kinase beta (PI4KB, Homo sapiens, UniProt Q9UBF8)", "assay": "binding, competition with immobilised ligand", "remaining binding [%]": 100}
{"target": "Focal adhesion kinase 1 (PTK2, Homo sapiens, UniProt Q05397)", "assay": "kinase binding, KINOMEscan", "how to read": "baseline: DMSO control", "remaining binding [%]": 96}
{"target": "Fibroblast growth factor receptor 3 (FGFR3, Homo sapiens, UniProt P22607, G697C)", "assay": "binding, competition with immobilised ligand", "remaining binding [%]": 100}
{"target": "Atypical kinase COQ8B, mitochondrial (COQ8B, Homo sapiens, UniProt Q96D53)", "assay": "kinase binding, KINOMEscan", "how to read": "baseline: DMSO control", "remaining binding [%]": 100}
{"target": "Serine/threonine-protein kinase 17B (STK17B, Homo sapiens, UniProt O94768)", "assay": "kinase binding, KINOMEscan", "how to read": "baseline: DMSO control", "remaining binding [%]": 99}
{"target": "Serine/threonine-protein kinase PLK1 (PLK1, Homo sapiens, UniProt P53350)", "assay": "binding, competition with immobilised ligand", "remaining binding [%]": 99}
{"target": "Mitogen-activated protein kinase kinase kinase 19 (MAP3K19, Homo sapiens, UniProt Q56UN5)", "assay": "kinase binding, KINOMEscan", "how to read": "baseline: DMSO control", "remaining binding [%]": 67}
{"target": "Serine/threonine-protein kinase SIK3 (SIK3, Homo sapiens, UniProt Q9Y2K2)", "assay": "binding, competition with immobilised ligand", "remaining binding [%]": 100}
{"target": "Receptor tyrosine-protein kinase erbB-3 (ERBB3, Homo sapiens, UniProt P21860)", "assay": "binding, competition with immobilised ligand", "remaining binding [%]": 100}
{"data": "Single results of other studies", "VHL with Elongin B/C": "von Hippel-Lindau disease tumor suppressor, with Elongin B/C (VHL, Homo sapiens, UniProt P40337)"}
{"Compound": "Cc1ncsc1-c1ccc(C(CO)NC(=O)C2CC(O)CN2C(=O)C(NC(=O)c2ccc(COc3c(-c4c(C)c(F)cc5[nH]ncc45)c(C4CC4)cc4c(N5CC6CC5CN6)nc(OC5CCOCC5)nc34)cc2)C(C)C)cc1 (stereo not drawn)", "target": "VHL with Elongin B/C", "assay": "SPR, single-cycle", "test system": "immobilized VCB complex", "conditions": "binary", "measurement": "pKd", "result": "6.87 and 7.01 and 6.97"}
{"Compound": "Cc1ncsc1-c1ccc(C2(NC(=O)C3CC(O)CN3C(=O)C(NC(=O)c3ccc(COc4c(-c5c(C)c(F)cc6[nH]ncc56)c(C5CC5)cc5c(N6CC7CC6CN7)nc(OC6CCOCC6)nc45)cc3)C(C)(C)C)CC2)cc1 (stereo not drawn)", "target": "GTPase KRas (KRAS, Homo sapiens, UniProt P01116, G12D)", "assay": "degrader, In-Cell ELISA", "test system": "AsPC-1 (KRAS G12D)", "conditions": "24 h, geometric mean", "measurement": "DC50", "result": "0.682 µM"}
{"Compound": "Cc1ncsc1-c1ccc(C(CO)NC(=O)C2CC(O)CN2C(=O)C(C(C)C)n2cc(-c3ccc(COc4c(-c5c(C)c(F)cc6[nH]ncc56)c(C5CC5)cc5c(N6CC7CC6CN7)nc(OC6CCOCC6)nc45)cc3)nn2)cc1 (stereo not drawn)", "target": "VHL with Elongin B/C", "assay": "SPR, single-cycle", "test system": "immobilized VCB complex", "conditions": "binary", "measurement": "pKd", "result": "8.15 and 7.99 and 8.25"}
{"Compound": "Cc1ncsc1-c1ccc(C2(NC(=O)C3CC(O)CN3C(=O)C(NC(=O)c3ccc(COc4c(-c5c(C)c(F)cc6[nH]ncc56)c(C5CC5)cc5c(N6CC7CC6CN7)nc(OC6CCOCC6)nc45)cc3)C(C)C)CC2)cc1 (stereo not drawn)", "target": "GTPase KRas, GDP-bound (KRAS, Homo sapiens, UniProt P01116, G12D)", "assay": "SPR, multi-cycle", "test system": "immobilized KRAS G12D", "conditions": "binary, geometric mean", "measurement": "koff", "result": "0.00819 s⁻¹"}
{"note": "A few entries again (set 1):"}
{"target": "DCAF1", "conditions": "78.01 °C", "SYPRO Orange fluorescence [a.u.]": 47100}
{"target": "DCAF1", "conditions": "46.4 °C", "SYPRO Orange fluorescence [a.u.]": 13600}
